Published values pooled from the literature.
Lines come from different studies, so protocols differ. Numbers after ± are the reported error. Non-standard residues stand in square brackets, D forms with d. *: point of attachment.
gdpP residues 84-659: gdpP, residues 84-659 (Bacillus subtilis, UniProt P37484)
Chain of UniProt P37484 (84-659, looked up): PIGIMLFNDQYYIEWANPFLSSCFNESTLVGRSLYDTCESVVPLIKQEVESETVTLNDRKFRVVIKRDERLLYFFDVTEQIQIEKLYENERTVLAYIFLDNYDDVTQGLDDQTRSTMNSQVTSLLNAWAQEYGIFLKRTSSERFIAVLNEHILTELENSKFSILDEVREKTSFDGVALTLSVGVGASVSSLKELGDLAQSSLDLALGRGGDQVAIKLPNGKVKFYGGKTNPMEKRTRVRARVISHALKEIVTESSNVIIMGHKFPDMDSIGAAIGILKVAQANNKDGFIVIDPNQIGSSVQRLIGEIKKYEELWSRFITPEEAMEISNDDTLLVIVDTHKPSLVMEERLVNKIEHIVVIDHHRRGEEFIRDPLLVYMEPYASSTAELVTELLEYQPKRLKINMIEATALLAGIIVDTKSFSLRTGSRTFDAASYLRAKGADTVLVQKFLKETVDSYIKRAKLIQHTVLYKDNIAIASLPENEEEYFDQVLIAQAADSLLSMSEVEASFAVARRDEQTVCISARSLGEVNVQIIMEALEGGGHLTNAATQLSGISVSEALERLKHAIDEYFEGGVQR
Ryanodine receptor 1: Ryanodine receptor 1 (Oncorhynchus mykiss, UniProt A0A8C7UX14)
KCNMA1 with beta-3 subunit: Calcium-activated potassium channel subunit alpha-1, with beta-3 subunit (KCNMA1, Homo sapiens, UniProt Q12791)
Chain of UniProt Q12791 (whole entry, looked up): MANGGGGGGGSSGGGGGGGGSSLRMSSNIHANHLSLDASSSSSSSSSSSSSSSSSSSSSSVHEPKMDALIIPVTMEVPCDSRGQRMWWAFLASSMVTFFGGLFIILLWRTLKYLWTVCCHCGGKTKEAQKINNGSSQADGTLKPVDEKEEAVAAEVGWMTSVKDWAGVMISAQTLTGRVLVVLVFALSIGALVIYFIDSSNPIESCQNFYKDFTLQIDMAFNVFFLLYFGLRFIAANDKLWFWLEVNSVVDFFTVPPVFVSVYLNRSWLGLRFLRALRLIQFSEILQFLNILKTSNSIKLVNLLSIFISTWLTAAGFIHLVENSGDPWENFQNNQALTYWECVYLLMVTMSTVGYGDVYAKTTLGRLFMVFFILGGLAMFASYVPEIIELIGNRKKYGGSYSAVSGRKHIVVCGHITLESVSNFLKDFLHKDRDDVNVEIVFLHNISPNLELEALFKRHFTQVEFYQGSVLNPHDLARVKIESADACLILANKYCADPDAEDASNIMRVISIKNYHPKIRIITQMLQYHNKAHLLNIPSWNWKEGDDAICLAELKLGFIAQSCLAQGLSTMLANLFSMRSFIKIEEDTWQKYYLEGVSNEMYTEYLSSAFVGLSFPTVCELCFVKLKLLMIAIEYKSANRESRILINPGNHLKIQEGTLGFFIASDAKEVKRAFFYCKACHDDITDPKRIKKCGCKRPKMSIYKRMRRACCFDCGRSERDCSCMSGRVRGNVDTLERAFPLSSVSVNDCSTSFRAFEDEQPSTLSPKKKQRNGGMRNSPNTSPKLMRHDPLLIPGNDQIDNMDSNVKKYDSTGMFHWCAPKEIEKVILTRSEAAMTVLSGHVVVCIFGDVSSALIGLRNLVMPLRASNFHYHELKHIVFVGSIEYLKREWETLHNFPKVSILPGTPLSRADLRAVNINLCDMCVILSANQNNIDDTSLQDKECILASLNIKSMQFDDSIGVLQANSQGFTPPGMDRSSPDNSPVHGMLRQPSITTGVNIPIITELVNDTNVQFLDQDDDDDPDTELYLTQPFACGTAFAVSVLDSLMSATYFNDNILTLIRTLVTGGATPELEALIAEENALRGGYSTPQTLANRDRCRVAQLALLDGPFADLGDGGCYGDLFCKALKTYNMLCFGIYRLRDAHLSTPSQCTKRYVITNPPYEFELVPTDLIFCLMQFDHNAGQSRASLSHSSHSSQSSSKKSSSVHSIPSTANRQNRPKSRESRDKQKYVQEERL
CNR1: Cannabinoid receptor 1 (CNR1, Homo sapiens, UniProt P21554)
Chain of UniProt P21554 (whole entry, looked up): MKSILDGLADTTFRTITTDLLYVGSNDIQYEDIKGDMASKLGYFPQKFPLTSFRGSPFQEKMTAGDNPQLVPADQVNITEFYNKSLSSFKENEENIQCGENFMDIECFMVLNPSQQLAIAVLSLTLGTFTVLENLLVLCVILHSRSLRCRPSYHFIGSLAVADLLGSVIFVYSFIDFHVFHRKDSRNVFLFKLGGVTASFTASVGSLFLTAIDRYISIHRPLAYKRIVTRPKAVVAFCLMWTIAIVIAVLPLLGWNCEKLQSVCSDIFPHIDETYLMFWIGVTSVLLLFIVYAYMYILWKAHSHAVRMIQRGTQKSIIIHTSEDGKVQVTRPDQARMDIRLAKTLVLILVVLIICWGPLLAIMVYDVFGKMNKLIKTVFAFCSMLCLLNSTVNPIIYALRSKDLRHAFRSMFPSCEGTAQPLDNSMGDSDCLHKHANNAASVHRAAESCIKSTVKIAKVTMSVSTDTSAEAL
B1: N-acetyl, Nle1, C-ACC; Nle = CCCC[C@H](N)C(=O)O; ACC = NC(=O)Cc1cc(=O)oc2cc(N*)ccc12; chain Ac-[Nle]KPR-{ACC} (SMILES CCCC[C@H](NC(C)=O)C(=O)N[C@@H](CCCCN)C(=O)N1CCC[C@H]1C(=O)N[C@@H](CCCNC(=N)N)C(=O)Nc1ccc2c(CC(N)=O)cc(=O)oc2c1)
Chain of UniProt P18508 (whole entry, unmodified, looked up): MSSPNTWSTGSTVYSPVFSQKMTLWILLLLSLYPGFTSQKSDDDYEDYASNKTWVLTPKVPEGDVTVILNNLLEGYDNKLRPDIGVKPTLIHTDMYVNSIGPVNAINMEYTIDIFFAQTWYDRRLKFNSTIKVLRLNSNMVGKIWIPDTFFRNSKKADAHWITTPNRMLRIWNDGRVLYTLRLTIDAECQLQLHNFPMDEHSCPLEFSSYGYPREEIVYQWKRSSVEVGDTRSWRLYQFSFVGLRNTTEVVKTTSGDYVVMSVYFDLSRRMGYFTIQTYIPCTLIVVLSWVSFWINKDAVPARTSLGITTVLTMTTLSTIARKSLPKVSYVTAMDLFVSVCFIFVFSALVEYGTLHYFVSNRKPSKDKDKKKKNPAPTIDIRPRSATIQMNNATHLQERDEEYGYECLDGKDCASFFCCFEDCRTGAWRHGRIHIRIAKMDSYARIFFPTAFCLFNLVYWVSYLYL
Chain of UniProt P0A6Y8 (whole entry, looked up): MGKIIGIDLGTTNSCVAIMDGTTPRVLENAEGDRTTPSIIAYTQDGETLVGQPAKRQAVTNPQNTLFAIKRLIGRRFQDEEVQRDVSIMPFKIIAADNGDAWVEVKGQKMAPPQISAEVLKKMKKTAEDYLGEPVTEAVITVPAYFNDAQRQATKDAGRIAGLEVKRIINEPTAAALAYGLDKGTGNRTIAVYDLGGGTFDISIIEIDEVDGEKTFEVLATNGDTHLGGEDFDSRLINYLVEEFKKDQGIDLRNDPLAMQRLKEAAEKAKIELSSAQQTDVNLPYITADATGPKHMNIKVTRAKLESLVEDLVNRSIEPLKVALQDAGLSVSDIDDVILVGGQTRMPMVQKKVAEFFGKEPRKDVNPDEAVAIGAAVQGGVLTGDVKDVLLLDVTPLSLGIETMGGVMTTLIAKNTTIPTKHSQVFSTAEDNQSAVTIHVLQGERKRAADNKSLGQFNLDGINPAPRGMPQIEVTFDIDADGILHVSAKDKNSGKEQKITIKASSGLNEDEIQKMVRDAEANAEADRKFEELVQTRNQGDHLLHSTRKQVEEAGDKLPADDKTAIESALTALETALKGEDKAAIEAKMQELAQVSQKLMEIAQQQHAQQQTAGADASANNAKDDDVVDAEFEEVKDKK
Chain of UniProt P54292 (whole entry, looked up): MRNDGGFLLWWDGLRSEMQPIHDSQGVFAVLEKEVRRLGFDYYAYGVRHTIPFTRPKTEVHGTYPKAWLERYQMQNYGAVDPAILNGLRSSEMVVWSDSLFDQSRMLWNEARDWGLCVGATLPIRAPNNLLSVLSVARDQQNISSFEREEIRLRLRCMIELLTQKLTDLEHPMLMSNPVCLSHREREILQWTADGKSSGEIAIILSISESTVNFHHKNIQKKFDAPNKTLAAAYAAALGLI
Chain of UniProt P41143 (whole entry, looked up): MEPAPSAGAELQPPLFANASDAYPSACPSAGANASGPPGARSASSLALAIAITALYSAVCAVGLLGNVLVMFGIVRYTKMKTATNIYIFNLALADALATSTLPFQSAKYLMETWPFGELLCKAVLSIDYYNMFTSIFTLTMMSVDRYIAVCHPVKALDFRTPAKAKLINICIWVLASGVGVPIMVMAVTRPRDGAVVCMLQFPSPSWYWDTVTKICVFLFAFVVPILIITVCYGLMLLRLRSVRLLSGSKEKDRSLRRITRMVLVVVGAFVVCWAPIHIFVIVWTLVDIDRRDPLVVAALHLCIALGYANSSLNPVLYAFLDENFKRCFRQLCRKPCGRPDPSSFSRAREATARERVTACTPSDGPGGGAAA
Chain of UniProt P47870 (whole entry, unmodified, looked up): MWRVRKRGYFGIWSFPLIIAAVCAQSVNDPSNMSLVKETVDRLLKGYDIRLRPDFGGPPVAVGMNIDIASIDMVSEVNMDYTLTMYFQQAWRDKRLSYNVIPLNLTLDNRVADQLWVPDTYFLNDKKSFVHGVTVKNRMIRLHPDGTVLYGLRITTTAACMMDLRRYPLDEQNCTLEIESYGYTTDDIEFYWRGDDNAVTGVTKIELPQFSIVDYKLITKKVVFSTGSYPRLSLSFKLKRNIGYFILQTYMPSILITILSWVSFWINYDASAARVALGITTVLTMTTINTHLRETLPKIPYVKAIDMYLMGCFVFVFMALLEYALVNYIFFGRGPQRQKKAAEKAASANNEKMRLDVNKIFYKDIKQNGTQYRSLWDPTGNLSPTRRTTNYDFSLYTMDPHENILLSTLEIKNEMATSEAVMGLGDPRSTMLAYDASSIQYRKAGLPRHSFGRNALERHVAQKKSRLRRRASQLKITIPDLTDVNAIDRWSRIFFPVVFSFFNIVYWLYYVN
Chain of UniProt P04070 (whole entry, looked up): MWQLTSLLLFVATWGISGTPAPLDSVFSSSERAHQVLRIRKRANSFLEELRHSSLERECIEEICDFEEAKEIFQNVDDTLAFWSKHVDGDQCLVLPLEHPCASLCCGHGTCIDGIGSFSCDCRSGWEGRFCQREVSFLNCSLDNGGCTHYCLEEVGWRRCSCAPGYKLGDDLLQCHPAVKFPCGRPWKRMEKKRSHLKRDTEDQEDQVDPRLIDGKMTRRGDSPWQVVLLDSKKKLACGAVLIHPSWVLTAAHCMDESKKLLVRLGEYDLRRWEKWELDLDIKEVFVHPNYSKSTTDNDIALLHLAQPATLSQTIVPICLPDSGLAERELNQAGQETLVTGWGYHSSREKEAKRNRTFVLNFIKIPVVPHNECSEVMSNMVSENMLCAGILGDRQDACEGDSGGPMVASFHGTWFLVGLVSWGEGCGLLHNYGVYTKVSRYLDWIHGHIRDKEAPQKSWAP

Substance | target or system | assay | test system | setting | how to read | measurement | value
O=c1c(I)ccc2n1C[C@@H]1CNC[C@H]2C1 | α4β2* nAChR, mouse | – | DBA/2J mice, cerebral cortex membranes | intravenous infusion, 0.2 mg/kg/h, 7 days | relative to: saline | increase in binding sites | 70.3 ± 10.7%
Nc1ncnc2c1ncn2[C@H]1C[C@@H]2OP(=O)(O)OC[C@H]3O[C@@H](n4cnc5c(N)ncnc54)C[C@@H]3OP(=O)(O)OC[C@H]2O1 | gdpP residues 84-659 | substrate, HPLC | – | 100 µM, 37 °C, upper limit if undegraded 24 h, added: enzyme 1 µM | – | degradation rate | ≤ 0.001 mol/min/mol enzyme
CC(C)(C)OC(=O)c1ncn2c1[C@@H]1CCCN1C(=O)c1c(Br)cccc1-2 | Gabrg2/Gabra4, with β3 subunit (Rattus norvegicus, UniProt P18508+P28471) | GABA-induced chloride current, two-electrode voltage clamp | Xenopus oocytes | rat α4β3γ2 receptor, added: GABA EC3 | relative to: GABA EC3 alone | Emax | 395 ± 8%
DNRDGNVYYF | Serine endoprotease DegS (degS, Escherichia coli, UniProt P0AEE3, D320A/H198P) | protease activity | peptide | 30 µM, 23 °C, 0.1 µM enzyme trimer, added: saturating OMP peptide | – | Vmax | 2 ± 0.1 s⁻¹ per enzyme
O=S(=O)(O)Oc1cc(Cl)c(-c2cc(Cl)ccc2Cl)cc1Cl | sulfatase, human liver microsomes | substrate | – | pH 7.4, 37 °C | – | Vmax | 7.6 ± 0.2 nmol/min/mg
Clc1ccc(Cl)c(-c2c(Cl)ccc(Cl)c2Cl)c1 | Ryanodine receptor 1 | [3H]ryanodine binding | rainbow trout, skeletal muscle microsomes | – | – | EC20 | 430 nM
B1 | PROC (Homo sapiens, UniProt P04070) | substrate, fluorogenic ACC release | – | 30 min, pH 7.4, 37 °C | – | kcat/Km | 3160 ± 80 M⁻¹ s⁻¹
CCOc1ccccc1S(=O)(=O)N1CC(c2nc(-c3ccc(F)cc3Cl)no2)C1 | KCNMA1 with beta-3 subunit | – | HEK293 | 30 µM | – | activity | inactive
N=C(N)NCC(=O)NCC1(Nc2ccccc2)CCN(Cc2ccccc2)CC1 | NPFFR1 (Homo sapiens, UniProt Q9GZQ6) | receptor activation, agonist | – | – | – | highest concentration inactive | ≤ 1 µM
CC1=C(/C=C/C(C)=C/C=C/C(C)=C/C(=O)O)C(C)(C)CCC1 | RARB (Homo sapiens, UniProt P10826) | reporter gene, agonist, luciferase | HEK-293T | 1 nM | – | induction | 1.6
CCCCSS(C)(=O)=O | Gabrg2/GABRB2/Gabra1 (Rattus norvegicus, UniProt P18508+P47870+P62813, C260A/C282A/C312A/C319A/C341A/Q255C) | covalent modifier, two-electrode voltage clamp | Xenopus laevis oocytes | 0.5 mM, labelled without GABA, added: GABA EC10 | relative to: before labelling | GABA current | decreased
CCOc1ccccc1S(=O)(=O)N1CC(c2nc(-c3ccsc3)no2)C1 | KCNMA1 with beta-3 subunit | – | HEK293 | 30 µM | – | activity | inactive
C[C@H]1CCCC(=O)CCC/C=C/c2cc(O)cc(O)c2C(=O)O1 | zhd101 (Clonostachys rosea, UniProt Q8NKB0, V153H) | substrate, HPLC | – | 10 min, pH 5.5, 37 °C, 1% acetonitrile | – | Km | 58.6 ± 2.05 mM
Clc1cc(Cl)c(-c2cc(Cl)c(Cl)cc2Cl)cc1Cl | Ryanodine receptor 1 | [3H]ryanodine binding | rainbow trout, skeletal muscle microsomes | up to 20 µM | relative to: DMSO | Emax | 167 ± 14.6%
CC(=O)N[C@@H]1[C@@H](O)[C@H](O[C@@H]2O[C@H](CO)[C@@H](O[C@@H]3O[C@H](CO[C@H]4O[C@H](CO)[C@@H](O)[C@H](O)[C@@H]4O)[C@@H](O)[C@H](O[C@H]4O[C@H](CO)[C@@H](O)[C@H](O)[C@@H]4O[C@@H]4O[C@H](CO)[C@@H](O[C@@H]5O[C@H](CO)[C@H](O)[C@H](O)[C@H]5O)[C@H](O)[C@H]4NC(C)=O)[C@@H]3O)[C@H](O)[C@H]2NC(C)=O)[C@@H](CO)O[C@H]1NC(=O)C[C@H](N)C(=O)O | Agglutinin (Sclerotinia sclerotiorum, UniProt A7XUK7) | glycan array | – | concentration not given, pH 7.4, spacer Sp12 | – | lectin binding fluorescence | 11500 ± 555 RFU
anthraquinone-neomycin | poly(dA)•2poly(dT) triplex DNA | isothermal titration calorimetry | – | concentration not given, pH 5.5, 10 °C, KCl 150 mM | – | binding enthalpy | -5.4 ± 0.2 kcal/mol
O=[N+]([O-])c1ccc(O[C@H]2O[C@H](CO)[C@H](O)[C@H](O)[C@H]2O)cc1 | lacY (Escherichia coli, UniProt P02920, I32C/N245C) | cytoplasmic cavity closing | DDM | Cu2+ cross-linked | – | reverse rate constant | 242 ± 54 s⁻¹

Substance | target or system | assay | test system | setting | how to read | measurement | value
O=C(Cc1ccc(F)cc1)NC1CCOC1=O (stereo not shown) | rhlR (Pseudomonas aeruginosa, UniProt P54292) | reporter gene, agonist | Escherichia coli reporter strain | 100 µM | relative to: BHL 900 µM | activation | 71%
CC(C)(NC(=O)c1nn(CC2CCOCC2)c2ccccc12)c1cccc(C(N)=O)c1 | CNR1 | calcium mobilization, agonist | CHO-K1 expressing Gαq16 | – | relative to: CP55,940 maximum | Emax | 92 ± 1%
C#CCOc1cccc(-c2cc(=O)c3ccccc3o2)c1 | Cytochrome P450 1A1 (CYP1A1, Homo sapiens, UniProt P04798) | enzyme inactivation, mechanism-based inactivator, EROD | – | added: NADPH preincubation | – | KI | 240 nM
C#Cc1cccc2c1[nH]c1cnc(C(=O)OC(C)(C)C)cc12 | Gabrg2/Gabra3, with β3 subunit (Rattus norvegicus, UniProt P18508+P20236) | GABA current modulation | Xenopus oocytes | 10 to 100 nM | relative to: α3 over α1 GABAA | selectivity ratio | 10 to 100 fold
O=C1c2c(O)ccc(O)c2C(=O)c2c(NCCNCCO)ccc(NCCNCCO)c21 | sfp (Bacillus subtilis, UniProt P39135) | enzyme activity | – | concentration not given, pH 7.6 | – | activity | inactive
Clc1cc(Cl)c(-c2c(Cl)ccc(Cl)c2Cl)cc1Cl | Ryanodine receptor 1 | [3H]ryanodine binding | rainbow trout, skeletal muscle microsomes | – | – | EC20 | 450 nM
COC1C2OP(=O)(O)OCC3OC(n4cnc5c(N)ncnc54)C(O)C3OP(=O)(O)OCC2OC1n1cnc2c(N)ncnc21 (stereo not shown) | gdpP residues 84-659 | substrate, HPLC | – | 100 µM, 37 °C, upper limit if undegraded 24 h, added: enzyme 1 µM | – | degradation rate | 0.14 ± 0.01 mol/min/mol enzyme
CC(C)(NC(=O)c1nn(Cc2ccc(F)cc2)c2ccccc12)C1CCCN(C(N)=O)C1 (stereo not shown) | CNR1 | calcium mobilization, agonist | CHO-K1 expressing Gαq16 | – | relative to: CP55,940 maximum | Emax | 75 ± 5%
CN[C@@](C)(C[18F])C(=O)O | – | – | SCID mouse A549 xenograft, lung | 120 min, post injection | – | tissue uptake | 1.7 ± 0.2 %ID/g
Clc1cc(-c2cc(Cl)c(Cl)c(Cl)c2Cl)c(Cl)c(Cl)c1Cl | Ryanodine receptor 1 | [3H]ryanodine binding | rainbow trout, skeletal muscle microsomes | up to 20 µM | relative to: DMSO | Emax | 130 ± 2.99%
CSCC[C@H](N)C(=O)O | bioB (Escherichia coli, UniProt P12996) | enzyme activity, inhibitor | – | 500 µM | – | remaining activity | 72%
Nc1ncnc2c1nc(Sc1ccc(Cl)cc1)n2[C@@H]1O[C@@H]2CO[P@](=O)(S)O[C@H]2[C@H]1O | cAMP-dependent protein kinase type II-beta regulatory subunit, holoenzyme with catalytic subunit (Prkar2b, Rattus norvegicus, UniProt P12369, S112A) | PKA holoenzyme activation, activator, fluorescence anisotropy | – | – | relative to: RIIβ over RIα, higher = RIIβ-selective | selectivity ratio | 3.6
COc1cc2c3c(c1OC)Oc1ccc(cc1)C[C@@H]1c4c(cc(OC)c(OC)c4Oc4ccc(cc4)C[C@H]3N(C)CC2)CCN1C | Heat shock protein HSP 90-alpha, C-terminal domain (HSP90AA1, Homo sapiens, UniProt P07900) | binding, zonal affinity chromatography | – | pH 7.4, 25 °C | – | retention factor | 8.37
CC(C)C[C@H](NC(=O)[C@H](CCCCN)NC(=O)[C@H](CCCCN)NC(=O)CNC(=O)[C@H](CCCNC(=N)N)NC(=O)[C@@H](N)CCCNC(=N)N)C(=O)N[C@@H](CC(C)C)C(=O)N[C@@H](CC(C)C)C(=O)N[C@@H](CC(C)C)C(=O)N[C@@H](CC(C)C)C(=O)N[C@@H](CCCCN)C(=O)N[C@@H](CCCCN)C(=O)N[C@@H](CCCCN)C(=O)NCC(=O)N[C@@H](CSC1CC(=O)N(CCCCCNC(=O)c2ccc(-c3c4ccc(=N)c(S(=O)(=O)O)c-4oc4c(S(=O)(=O)O)c(N)ccc34)c(C(=O)O)c2)C1=O)C(=O)O (stereo partly shown) | dnaK, ADP-bound (Escherichia coli, UniProt P0A6Y8) | binding, fluorescence anisotropy competition | – | excess competitor | – | fraction remaining bound | ~25%
CCCC(C)Sc1nc2c([nH]1)c(=S)n(C)c(=O)n2C (stereo not shown) | Nr3c1 (Rattus norvegicus, UniProt P06536) | reporter gene, antagonist, MMTV-luciferase | T47D/A1-2 | 10 µM, 24 h, added: 5 nM dexamethasone | relative to: maximal activity | remaining activity | 97%
KQTARKSTGGWW (dodecanoyl-Lys9) | HDAC8 (Homo sapiens, UniProt Q9BY41) | substrate, HPLC | peptide | 1 µM, 1 h, pH 8, 37 °C | – | kcat/Km | 177 ± 7 M⁻¹ s⁻¹
Cc1ccc(Oc2ccc(C(=O)N[C@H](CN3CCN(c4cccc(O)c4)[C@@H](C)C3)C(C)C)cc2)cc1 | OPRD1 (Homo sapiens, UniProt P41143) | antagonist | CHO | added: DPDPE | – | Ke | 188 ± 33 nM

Excerpt of the above:
Substance | target or system | assay | test system | setting | how to read | measurement | value
KQTARKSTGGWW (dodecanoyl-Lys9) | HDAC8 (Homo sapiens, UniProt Q9BY41) | substrate, HPLC | peptide | 1 µM, 1 h, pH 8, 37 °C | – | kcat/Km | 177 ± 7 M⁻¹ s⁻¹
CCCC(C)Sc1nc2c([nH]1)c(=S)n(C)c(=O)n2C (stereo not shown) | Nr3c1 (Rattus norvegicus, UniProt P06536) | reporter gene, antagonist, MMTV-luciferase | T47D/A1-2 | 10 µM, 24 h, added: 5 nM dexamethasone | relative to: maximal activity | remaining activity | 97%
O=C1c2c(O)ccc(O)c2C(=O)c2c(NCCNCCO)ccc(NCCNCCO)c21 | sfp (Bacillus subtilis, UniProt P39135) | enzyme activity | – | concentration not given, pH 7.6 | – | activity | inactive
